Measured values gathered from unrelated publications.
Each numbered part is a random draw from the data of one study; scales do not carry over between parts. Changes are numbered by the printed parent chain.

Study 1 — target: CCNA2, cyclin fold, Cln2 fusion (human); method: yeast growth competition, sequencing; matrix: yeast; setting: strong parent motif; relative to: not given; reading: higher = stronger binding
Parent: viral docking peptide; YKVKRRLVFGADD; partner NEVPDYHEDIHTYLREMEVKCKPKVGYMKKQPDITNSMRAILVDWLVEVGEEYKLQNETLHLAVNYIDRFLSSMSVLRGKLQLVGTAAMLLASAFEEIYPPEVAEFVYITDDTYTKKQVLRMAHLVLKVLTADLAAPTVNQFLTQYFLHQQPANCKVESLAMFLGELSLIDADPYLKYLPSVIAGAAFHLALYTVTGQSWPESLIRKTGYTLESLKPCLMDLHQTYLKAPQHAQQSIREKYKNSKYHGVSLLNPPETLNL
Change	normalised enrichment score
G10W	5.97
D12A	6.53
K2A	5.98
K4W	3.56
D12M	6.55
G10A	6.6
L7H	0.217
V8E	6.49
V8R	6.19
K4R	6.49
F9C	1.14
V3E	0.796
V3I	6.14
R6K	6.36
R6E	5.26
V8L	6.47
K2S	5.8
R5C	4.53
R6L	3.68

Study 2 — target: vanadate, free oxyanion; method: microfluidic competitive inhibition; matrix: in vitro, cell-free expressed; concentration: not given; reading: lower = stronger binding
Setting: derived from inhibition constants, unchanged parent 676 nM
Parent: PafA, mature enzyme, eGFP fusion (Elizabethkingia meningoseptica, UniProt Q9KJX5); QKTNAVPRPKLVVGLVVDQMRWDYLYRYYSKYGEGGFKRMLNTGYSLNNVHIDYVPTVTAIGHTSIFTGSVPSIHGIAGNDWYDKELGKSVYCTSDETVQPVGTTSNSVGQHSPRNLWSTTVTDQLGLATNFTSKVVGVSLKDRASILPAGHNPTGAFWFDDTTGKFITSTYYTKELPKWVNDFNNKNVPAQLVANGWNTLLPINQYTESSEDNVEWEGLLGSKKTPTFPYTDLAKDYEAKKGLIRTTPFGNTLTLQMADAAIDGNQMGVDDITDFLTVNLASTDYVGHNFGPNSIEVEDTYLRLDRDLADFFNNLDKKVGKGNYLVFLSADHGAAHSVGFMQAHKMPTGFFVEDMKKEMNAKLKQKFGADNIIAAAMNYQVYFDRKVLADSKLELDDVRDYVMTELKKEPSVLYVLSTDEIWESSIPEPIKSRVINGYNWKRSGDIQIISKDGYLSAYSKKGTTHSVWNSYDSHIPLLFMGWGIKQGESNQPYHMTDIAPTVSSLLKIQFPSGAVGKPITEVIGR
Change	oxyanion analog dissociation constant [nM]
K408G	614
N314G	566
L281G	1620
N379G	1550
D271V	1270
I450G	1360

Study 3 — method: RNA Bind-n-Seq; form: RNA; matrix: in vitro; concentration: 200 nM; setting: whole 134-nt RNA, ends assumed; added: 150 mM KCl; relative to: input library; reading: higher = stronger binding
Target: Ras GTPase-activating protein-binding protein 1, full length (G3BP1, Homo sapiens, UniProt Q13283)
Sequence of UniProt Q13283 (whole entry, looked up): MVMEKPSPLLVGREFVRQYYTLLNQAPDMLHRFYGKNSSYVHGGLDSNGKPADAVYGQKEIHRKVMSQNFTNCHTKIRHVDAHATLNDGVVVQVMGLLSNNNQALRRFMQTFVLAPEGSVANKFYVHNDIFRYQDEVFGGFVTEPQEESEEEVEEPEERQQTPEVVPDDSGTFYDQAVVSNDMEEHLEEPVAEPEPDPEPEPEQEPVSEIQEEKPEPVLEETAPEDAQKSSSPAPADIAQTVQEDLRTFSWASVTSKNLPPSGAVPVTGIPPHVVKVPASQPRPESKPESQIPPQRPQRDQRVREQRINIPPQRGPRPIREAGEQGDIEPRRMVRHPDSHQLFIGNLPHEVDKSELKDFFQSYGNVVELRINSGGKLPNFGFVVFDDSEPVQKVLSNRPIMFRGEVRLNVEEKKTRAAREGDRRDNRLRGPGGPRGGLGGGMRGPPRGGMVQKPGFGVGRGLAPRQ
Strand	log2 enrichment
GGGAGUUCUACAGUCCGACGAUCAGUCCUGUGCUACACAUCGUAUGUACCGAAUCGGGUUUUUGGGAAAGGGAAAAAGGGAAAGUAUUAUGUUACGCCGUUCGGAUCUGCACUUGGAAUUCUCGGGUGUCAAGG	-0.51
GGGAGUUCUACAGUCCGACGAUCUGGGAGGUGGAUUUUGUUUAUUUUUUUAGCUCAUUUCCAGGGGUGGGAAUUUUUUUUUAAUAUGUGUCAUGAAUAAAGUUGUUUCUGAAAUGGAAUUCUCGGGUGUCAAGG	0.402
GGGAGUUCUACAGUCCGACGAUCAGUCCUGUGCUACACAUCGUAUGUACCGAAUCAAACCCAAACCCCCAAACCCCCAAAAAAGUAUUAUGUUACGCCGUUCGGAUCUGCACUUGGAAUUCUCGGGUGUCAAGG	-0.564
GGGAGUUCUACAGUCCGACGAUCACCAUGCAGGUGGGCAUCUUUGGGAAGUGGGGCAAGGGGGGGAUAGGGAGGGGGGUAACACUUUGGGAACAGGUGGUCCCAGGUCGGUUCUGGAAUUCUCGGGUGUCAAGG	1.58
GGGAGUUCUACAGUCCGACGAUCUUGUGGAAAGGAGGAGAACCCCUGCUGAAAUUCGAGAGGAGUUUGAGCGGCUGCAGAGAGAGAGAGAAGAGAGGAGAUUGCAGCAGCGAAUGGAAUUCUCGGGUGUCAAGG	-0.264
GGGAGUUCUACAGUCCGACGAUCACCAUGCACGUGGGCAUCUUUGGGAAGUGGGGCAAGGGGGGGAUAGGGAGGGGGGUAACACUUUGGGAACAGGUGGUCCCAGGUCGUUUCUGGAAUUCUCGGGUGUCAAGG	1.11
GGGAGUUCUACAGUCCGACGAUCUCAAGUCCUGUGCUACACAUCGUAUGUACCGAAUCGGGUUGGGGUUGGUUGGGGAAAGUAUUAUGUUACGCCGUUCGGAUCUGCACUUCCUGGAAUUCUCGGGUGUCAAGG	0.666
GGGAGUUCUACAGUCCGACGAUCACCAUGCAGGUGGGCAUCUUUGGGAAGUGGGGCAAGGGGGGGAUAGGGAGGGGAGUAACACUUUGGGAACAGGUGGUCCCAGGUCGUUUCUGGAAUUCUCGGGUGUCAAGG	1.27

Study 4 — Molecule: VIM (Homo sapiens, UniProt P08670); method: cross-linking MS; matrix: cell fractions
partner	conditions	cross-linked residues
PLEC (Homo sapiens, UniProt Q15149)	added: DSSO	K168 to K4513
NES (Homo sapiens, UniProt P48681)	added: DSSO	K120 to T322
TAOK1 (Homo sapiens, UniProt Q7L7X3)	added: DSSO	K129 to K716
VPS13D (Homo sapiens, UniProt Q5THJ4)	added: DSSO	K188 to S1433
DNM1 (Homo sapiens, UniProt Q05193)	added: DMTMM	D209 to K508
ELAC1 (Homo sapiens, UniProt Q9H777)	added: DSSO	K445 to K176
ABCA10 (Homo sapiens, UniProt Q8WWZ4)	added: DSSO	K120 to K1328
ADNP2 (Homo sapiens, UniProt Q6IQ32)	added: DSSO	K313 to Y1046
